{"data": "Experimental data of several laboratories", "note": "Every numbered part comes from another study and shows a few of its results, in no order.", "chain of UniProt P28335 (whole entry, looked up)": "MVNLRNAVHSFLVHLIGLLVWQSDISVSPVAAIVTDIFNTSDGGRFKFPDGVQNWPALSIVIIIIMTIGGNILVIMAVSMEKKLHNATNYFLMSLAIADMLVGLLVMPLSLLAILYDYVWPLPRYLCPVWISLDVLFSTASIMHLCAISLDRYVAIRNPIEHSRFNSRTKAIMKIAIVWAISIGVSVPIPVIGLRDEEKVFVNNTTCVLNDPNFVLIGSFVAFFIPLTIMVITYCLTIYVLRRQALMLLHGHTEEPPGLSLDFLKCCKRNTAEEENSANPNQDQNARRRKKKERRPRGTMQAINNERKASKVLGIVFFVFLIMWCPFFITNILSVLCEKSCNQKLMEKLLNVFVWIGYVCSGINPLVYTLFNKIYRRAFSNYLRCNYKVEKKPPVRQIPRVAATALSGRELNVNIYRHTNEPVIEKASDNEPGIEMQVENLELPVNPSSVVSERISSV", "chain of UniProt P28223 (whole entry, looked up)": "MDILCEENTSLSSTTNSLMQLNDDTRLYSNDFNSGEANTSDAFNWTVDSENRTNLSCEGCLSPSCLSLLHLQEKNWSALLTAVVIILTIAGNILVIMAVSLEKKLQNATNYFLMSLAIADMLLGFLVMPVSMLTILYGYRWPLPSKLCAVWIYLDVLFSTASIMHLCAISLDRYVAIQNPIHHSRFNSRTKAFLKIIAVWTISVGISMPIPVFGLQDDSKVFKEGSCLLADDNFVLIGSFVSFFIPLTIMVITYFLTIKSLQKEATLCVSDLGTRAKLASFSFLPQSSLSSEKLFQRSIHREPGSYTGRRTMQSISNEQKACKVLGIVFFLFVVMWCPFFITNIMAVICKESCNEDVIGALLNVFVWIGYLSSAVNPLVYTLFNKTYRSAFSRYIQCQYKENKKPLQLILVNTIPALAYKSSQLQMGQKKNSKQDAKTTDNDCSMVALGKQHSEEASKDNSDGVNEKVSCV", "chain of UniProt P08908 (whole entry, looked up)": "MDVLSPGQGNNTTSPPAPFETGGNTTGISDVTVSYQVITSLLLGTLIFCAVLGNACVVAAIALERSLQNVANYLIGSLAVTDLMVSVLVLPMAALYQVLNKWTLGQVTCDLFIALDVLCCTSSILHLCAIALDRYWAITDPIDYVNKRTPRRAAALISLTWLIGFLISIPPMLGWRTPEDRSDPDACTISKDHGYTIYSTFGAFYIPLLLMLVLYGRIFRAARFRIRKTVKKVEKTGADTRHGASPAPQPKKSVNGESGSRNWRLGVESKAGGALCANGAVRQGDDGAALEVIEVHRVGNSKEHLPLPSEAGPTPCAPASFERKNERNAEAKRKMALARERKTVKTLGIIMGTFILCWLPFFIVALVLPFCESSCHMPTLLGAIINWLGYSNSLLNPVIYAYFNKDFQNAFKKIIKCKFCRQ"}
{"data": "Study 1", "cell line": "mouse MPNST tumor cells", "method": "high-content immunofluorescence imaging", "measured": "nuclear SOX9", "tested at": "10 µM", "time": "12 h", "setting": "mean of 2 replicates", "baseline": "DMSO control", "direction": "higher = more nuclear SOX9"}
{"Compound": "CC(=O)[C@H]1CC[C@H]2[C@@H]3CC[C@H]4C[C@H](O)CC[C@]4(C)[C@H]3C(=O)C[C@]12C", "nuclear SOX9 intensity": "97.9 % of DMSO"}
{"Compound": "CC(C)(C)OC(=O)c1ncn2c1[C@@H]1CCCN1C(=O)c1c(Br)cccc1-2", "nuclear SOX9 intensity": "85.3 % of DMSO"}
{"Compound": "CCN(C(C)=O)c1cccc(-c2ccnc3c(C#N)cnn23)c1", "nuclear SOX9 intensity": "120 % of DMSO"}
{"data": "Study 2", "organism": "Plasmodium berghei", "cells": "Huh-7", "strain": "liver stage", "tested at": "10 µM", "time": "24 h", "baseline": "control"}
{"Structure (SMILES)": "C=C[C@H]1CN2CC[C@H]1C[C@H]2[C@H](O)c1ccnc2ccccc12", "parasite load [%]": 101}
{"Structure (SMILES)": "CC(COc1ccccc1)N(CCCl)Cc1ccccc1 (stereo not drawn)", "parasite load [%]": 123}
{"Structure (SMILES)": "Cc1ccc(O)c([C@H](CCN(C(C)C)C(C)C)c2ccccc2)c1", "parasite load [%]": 106}
{"Structure (SMILES)": "O=NN(CCCl)C(=O)NCCCl", "parasite load [%]": 76}
{"Structure (SMILES)": "CN[C@@H](C)[C@@H](O)c1ccccc1", "parasite load [%]": 102}
{"Structure (SMILES)": "COC(=O)C(c1ccccc1)C1CCCCN1 (stereo not drawn)", "parasite load [%]": 55.8}
{"Structure (SMILES)": "CC(=O)O[C@H]1C[C@H](O[C@H]2[C@@H](O)C[C@H](O[C@H]3[C@@H](O)C[C@H](O[C@H]4CC[C@@]5(C)[C@H](CC[C@@H]6[C@@H]5C[C@@H](O)[C@]5(C)[C@@H](C7=CC(=O)OC7)CC[C@]65O)C4)O[C@@H]3C)O[C@@H]2C)O[C@H](C)[C@H]1O[C@@H]1O[C@H](CO)[C@@H](O)[C@H](O)[C@H]1O", "parasite load [%]": 18.5}
{"Structure (SMILES)": "CC[C@@H](C(=O)[C@@H](C)[C@@H](O)[C@H](C)CCc1ccc(C)c(O)c1C(=O)O)[C@H]1O[C@](CC)([C@H]2CC[C@](O)(CC)[C@H](C)O2)C[C@@H]1C", "parasite load [%]": 2.83}
{"data": "Study 3", "cell line": "HaCaT", "tested at": "100 µM", "time": "36 h"}
{"SMILES": "N=C(N)NN", "viability": "91.1%"}
{"SMILES": "COC(=O)Nc1nc2ccccc2[nH]1", "viability": "66.3%"}
{"SMILES": "NCC(O)c1ccc(O)cc1 (stereo not drawn)", "viability": "85.1%"}
{"SMILES": "C[C@@H](CO)NC(=O)[C@@H]1C=C2c3cccc4[nH]cc(c34)C[C@H]2N(C)C1", "viability": "85.2%"}
{"SMILES": "ClCC1C(CCl)[C@@]2(Cl)C(Cl)=C(Cl)[C@]1(Cl)C2(Cl)Cl (stereo partly drawn)", "viability": "5.77%"}
{"SMILES": "CCC(=O)O[C@H]1CC[C@H]2[C@@H]3CCC4=CC(=O)CC[C@]4(C)[C@H]3CC[C@]12C", "viability": "38.4%"}
{"SMILES": "C[C@H]1CNCCc2ccc(Cl)cc21", "viability": "82%"}
{"SMILES": "COc1ccc(CN2CCNCC2)c(OC)c1OC", "viability": "100%"}
{"SMILES": "COc1ccc(CN(C(=O)[C@@H](N)Cc2c(C)cc(C(N)=O)cc2C)[C@@H](C)c2nc(-c3ccccc3)c[nH]2)cc1C(=O)O", "viability": "93%"}
{"SMILES": "CC(C)OC(=O)[C@H](C)N[P@](=O)(CO[C@H](C)Cn1cnc2c(N)ncnc21)Oc1ccccc1", "viability": "69.3%"}
{"data": "Study 4", "Structure (SMILES)": "O=C(Nc1ccc(-n2nc(-c3cccnc3)cc2C(F)(F)F)cn1)c1ccc(-c2ccccc2)c(F)c1", "effect on": "binding", "method": "radioligand binding", "tested at": "10 µM"}
{"target": "5-hydroxytryptamine receptor 2A (HTR2A, Homo sapiens, UniProt P28223)", "inhibition": "-1.62%"}
{"target": "5-hydroxytryptamine receptor 2C (HTR2C, Homo sapiens, UniProt P28335)", "inhibition": "-17.3%"}
{"target": "5-hydroxytryptamine receptor 1A (HTR1A, Homo sapiens, UniProt P08908)", "inhibition": "-3.06%"}
{"note": "Some of these lines once more (study 1):"}
{"Compound": "CC(=O)[C@H]1CC[C@H]2[C@@H]3CC[C@H]4C[C@H](O)CC[C@]4(C)[C@H]3C(=O)C[C@]12C", "nuclear SOX9 intensity": "97.9 % of DMSO"}
{"Compound": "CC(C)(C)OC(=O)c1ncn2c1[C@@H]1CCCN1C(=O)c1c(Br)cccc1-2", "nuclear SOX9 intensity": "85.3 % of DMSO"}
